Published values from different studies.
Numbered parts are unrelated; each lists some results of a single study.

Study 1
Target: Histone acetyltransferase KAT6A, winged helix 2, GST fusion (KAT6A, Homo sapiens, UniProt Q92794, residues 85-181)
Method: protein binding microarray
Form: double-stranded DNA, one strand shown
Sample: in vitro
Concentration: not given
Notes: 8-mer, flanks averaged, mean of 2 arrays, mostly near background
Baseline: not given
Reading: higher = stronger binding
Residues (chain): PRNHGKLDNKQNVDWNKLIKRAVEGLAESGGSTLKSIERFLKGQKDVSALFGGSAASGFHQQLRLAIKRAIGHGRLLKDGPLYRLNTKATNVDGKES
With `GCTGGGCC` the E-score was 0.0506.
`ATGATAGG` gave an E-score of -0.098.
With `AGAGATCT` the E-score was -0.114.
`ACATAATC` has an E-score of -0.253.
The E-score of `AGGTTACG` is reported as -0.0823.
The E-score of `TCGGGGCA` is reported as 0.102.

Study 2
Target: Interferon regulatory factor 7, full length, phosphomimetic (IRF7, Homo sapiens, UniProt Q92985, residues 1-503, S101K/S471D/S472D/S475D/S476D/S477D/S483D/S484D/S487D)
Method: protein-binding microarray
Form: double-stranded DNA, one strand shown
Sample: in vitro
Concentration: 250 nM
Notes: 60-bp whole probe
Together with: salmon DNA 0.4 mg/ml
Baseline: random background probes
Reading: higher = stronger binding
Target sequence (chain): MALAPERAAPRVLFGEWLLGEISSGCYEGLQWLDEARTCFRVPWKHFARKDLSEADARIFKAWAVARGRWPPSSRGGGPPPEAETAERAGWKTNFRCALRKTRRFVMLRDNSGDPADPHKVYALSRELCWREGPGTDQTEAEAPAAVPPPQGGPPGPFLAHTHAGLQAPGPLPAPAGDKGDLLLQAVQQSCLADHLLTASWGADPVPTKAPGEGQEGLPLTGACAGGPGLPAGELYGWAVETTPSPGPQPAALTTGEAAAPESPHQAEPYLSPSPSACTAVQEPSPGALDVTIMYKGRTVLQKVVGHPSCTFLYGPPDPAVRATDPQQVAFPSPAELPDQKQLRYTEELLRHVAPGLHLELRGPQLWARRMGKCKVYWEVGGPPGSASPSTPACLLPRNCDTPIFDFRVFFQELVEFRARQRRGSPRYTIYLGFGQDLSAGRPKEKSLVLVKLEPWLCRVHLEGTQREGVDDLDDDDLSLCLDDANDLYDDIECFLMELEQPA
For `GCCTAGCACGACCGTTTCGGACTGGGGACGTGCTAGGTCTTGATTCGCTTGACGCTGCTG`, the log fluorescence was 2.46 z-score.
`GCCTAGCACTTAGGTATCGACTAGCGGTTAGTGCTAGTCTTGATTCGCTTGACGCTGCTG` gave a log fluorescence of 0.213 z-score.
The log fluorescence of `GCCTAGCACGTGAGTCCCACATCTCTGTCCGTGCTAGTCTTGATTCGCTTGACGCTGCTG` is reported as -0.148 z-score.
For `GCCTAGCACGATGGTATCGGGACTGGGGACGTGCTAGTCTTGATTCGCTTGACGCTGCTG`, the log fluorescence was -0.277 z-score.

Study 3
Target: Sal-like protein 4, full length isoform B (SALL4, Homo sapiens, UniProt Q9UJQ4-2, residues 1-616)
Method: universal PBM
Form: double-stranded DNA, one strand shown
Sample: in vitro
Concentration: not given
Notes: 8-mer, flanks averaged, mean of replicates
Reading: higher = stronger binding
Target sequence (chain): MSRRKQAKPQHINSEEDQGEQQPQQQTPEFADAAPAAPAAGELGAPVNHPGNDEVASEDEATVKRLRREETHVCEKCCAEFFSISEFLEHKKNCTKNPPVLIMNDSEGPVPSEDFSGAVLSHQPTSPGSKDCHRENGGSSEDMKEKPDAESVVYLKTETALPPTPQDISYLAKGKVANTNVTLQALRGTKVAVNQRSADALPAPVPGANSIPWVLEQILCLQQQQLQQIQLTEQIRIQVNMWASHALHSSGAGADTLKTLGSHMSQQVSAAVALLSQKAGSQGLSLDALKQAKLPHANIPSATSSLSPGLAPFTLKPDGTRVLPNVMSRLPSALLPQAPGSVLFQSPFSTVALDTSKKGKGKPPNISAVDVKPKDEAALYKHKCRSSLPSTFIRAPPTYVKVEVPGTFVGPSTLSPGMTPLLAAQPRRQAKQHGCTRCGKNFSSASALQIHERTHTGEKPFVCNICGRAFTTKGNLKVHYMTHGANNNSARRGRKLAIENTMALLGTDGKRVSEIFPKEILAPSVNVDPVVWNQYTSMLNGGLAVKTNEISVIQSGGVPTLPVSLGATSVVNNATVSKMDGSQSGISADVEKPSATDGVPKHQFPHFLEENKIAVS
`ACAGAAAA` gave an E-score of 0.0719.
`AACTGAAA` has an E-score of 0.229.
With `ACAACTTC` the E-score was 0.0725.
`GACAGCTA` gave an E-score of 0.0755.
`GACCTTAC` gave an E-score of -0.098.
`AATCAGTC` gave an E-score of -0.0474.

Other studies, line by line
For `PhoQ, residues 284 288 289 292 302 303 ALSMDL`, the fold induction was 5.55 (PhoP, residues 12 14 15 18 19 LHTVM (Escherichia coli, UniProt P23836); Sort-seq, item: YFP reporter; E. coli; PhoQ-PhoP variant library, together with: 10 µM Mg2+; baseline: high Mg2+ state, higher = stronger signaling).
